Experimental data pooled from the literature.
Parts stem from different laboratories: compare values within a part only. “And” joins repeats or separate records; there may be more than shown.
Chain of UniProt Q9UIK4 (whole entry, looked up): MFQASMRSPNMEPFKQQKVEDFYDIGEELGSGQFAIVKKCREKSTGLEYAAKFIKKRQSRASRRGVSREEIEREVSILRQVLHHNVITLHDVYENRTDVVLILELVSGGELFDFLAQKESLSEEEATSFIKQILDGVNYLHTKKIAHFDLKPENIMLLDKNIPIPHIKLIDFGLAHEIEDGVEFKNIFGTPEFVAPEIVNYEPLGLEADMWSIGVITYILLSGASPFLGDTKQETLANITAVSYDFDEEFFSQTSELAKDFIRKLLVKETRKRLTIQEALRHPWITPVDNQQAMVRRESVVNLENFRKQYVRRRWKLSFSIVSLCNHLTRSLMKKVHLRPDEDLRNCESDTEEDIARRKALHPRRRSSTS
Chain of UniProt Q13546 (whole entry, looked up): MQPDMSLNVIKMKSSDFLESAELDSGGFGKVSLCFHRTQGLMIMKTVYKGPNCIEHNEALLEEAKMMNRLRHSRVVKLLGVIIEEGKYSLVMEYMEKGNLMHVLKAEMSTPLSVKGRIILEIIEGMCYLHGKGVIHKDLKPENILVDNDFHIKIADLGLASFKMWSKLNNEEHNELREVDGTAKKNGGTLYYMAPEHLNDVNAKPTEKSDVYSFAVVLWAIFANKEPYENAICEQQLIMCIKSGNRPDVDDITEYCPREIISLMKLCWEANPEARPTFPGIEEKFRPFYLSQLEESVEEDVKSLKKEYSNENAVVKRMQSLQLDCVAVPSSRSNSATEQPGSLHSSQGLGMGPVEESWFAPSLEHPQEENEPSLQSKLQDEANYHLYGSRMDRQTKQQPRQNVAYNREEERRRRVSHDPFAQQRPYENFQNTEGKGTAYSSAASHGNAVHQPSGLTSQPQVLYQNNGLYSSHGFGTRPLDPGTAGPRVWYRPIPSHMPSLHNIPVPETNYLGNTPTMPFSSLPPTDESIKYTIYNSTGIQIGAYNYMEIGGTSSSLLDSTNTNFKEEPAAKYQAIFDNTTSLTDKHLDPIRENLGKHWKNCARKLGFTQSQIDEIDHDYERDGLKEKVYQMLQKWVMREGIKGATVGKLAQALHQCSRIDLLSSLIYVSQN
Chain of UniProt Q13557 (whole entry, looked up): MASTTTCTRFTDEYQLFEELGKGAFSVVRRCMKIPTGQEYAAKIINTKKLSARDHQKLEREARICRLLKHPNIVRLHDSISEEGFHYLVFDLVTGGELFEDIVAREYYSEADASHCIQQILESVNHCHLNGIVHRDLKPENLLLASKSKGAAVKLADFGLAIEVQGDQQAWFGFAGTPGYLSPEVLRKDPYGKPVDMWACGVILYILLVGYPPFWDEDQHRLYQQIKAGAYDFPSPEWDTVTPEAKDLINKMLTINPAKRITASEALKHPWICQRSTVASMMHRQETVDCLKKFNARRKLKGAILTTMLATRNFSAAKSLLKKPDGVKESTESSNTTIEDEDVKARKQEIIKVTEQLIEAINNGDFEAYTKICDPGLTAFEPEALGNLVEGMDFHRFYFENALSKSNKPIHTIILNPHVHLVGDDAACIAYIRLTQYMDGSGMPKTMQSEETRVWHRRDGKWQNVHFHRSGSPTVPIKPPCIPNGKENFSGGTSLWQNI
Chain of UniProt P42336 (whole entry, unmodified, looked up): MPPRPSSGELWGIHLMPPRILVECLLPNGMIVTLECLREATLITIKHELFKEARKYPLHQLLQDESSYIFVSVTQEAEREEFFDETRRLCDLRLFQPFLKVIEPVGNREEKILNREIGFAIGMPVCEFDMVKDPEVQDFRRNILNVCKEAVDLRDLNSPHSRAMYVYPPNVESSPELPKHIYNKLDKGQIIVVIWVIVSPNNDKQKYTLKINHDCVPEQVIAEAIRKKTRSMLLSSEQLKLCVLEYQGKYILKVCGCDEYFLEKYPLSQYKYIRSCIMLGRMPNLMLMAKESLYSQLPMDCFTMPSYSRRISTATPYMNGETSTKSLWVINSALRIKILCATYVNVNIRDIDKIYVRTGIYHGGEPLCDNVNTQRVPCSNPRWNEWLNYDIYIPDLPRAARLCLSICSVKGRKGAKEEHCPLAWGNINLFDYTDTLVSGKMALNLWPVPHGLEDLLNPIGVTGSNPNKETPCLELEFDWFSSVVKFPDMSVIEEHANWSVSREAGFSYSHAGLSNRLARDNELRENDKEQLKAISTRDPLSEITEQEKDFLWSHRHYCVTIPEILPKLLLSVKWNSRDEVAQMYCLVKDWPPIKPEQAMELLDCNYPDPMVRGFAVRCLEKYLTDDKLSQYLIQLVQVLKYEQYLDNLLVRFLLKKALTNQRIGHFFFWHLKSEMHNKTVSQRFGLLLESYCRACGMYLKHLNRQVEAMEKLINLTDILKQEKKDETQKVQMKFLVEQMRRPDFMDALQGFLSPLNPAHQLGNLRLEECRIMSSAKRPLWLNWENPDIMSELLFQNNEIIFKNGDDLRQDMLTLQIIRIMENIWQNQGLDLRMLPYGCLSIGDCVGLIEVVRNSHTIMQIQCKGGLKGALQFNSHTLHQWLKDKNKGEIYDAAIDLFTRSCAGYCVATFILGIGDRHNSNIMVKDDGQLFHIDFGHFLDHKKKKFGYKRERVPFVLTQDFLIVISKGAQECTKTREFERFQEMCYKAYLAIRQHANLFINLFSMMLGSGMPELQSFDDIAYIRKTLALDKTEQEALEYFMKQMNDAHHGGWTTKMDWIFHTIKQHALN
Chain of UniProt Q9Y3S1 (whole entry, looked up): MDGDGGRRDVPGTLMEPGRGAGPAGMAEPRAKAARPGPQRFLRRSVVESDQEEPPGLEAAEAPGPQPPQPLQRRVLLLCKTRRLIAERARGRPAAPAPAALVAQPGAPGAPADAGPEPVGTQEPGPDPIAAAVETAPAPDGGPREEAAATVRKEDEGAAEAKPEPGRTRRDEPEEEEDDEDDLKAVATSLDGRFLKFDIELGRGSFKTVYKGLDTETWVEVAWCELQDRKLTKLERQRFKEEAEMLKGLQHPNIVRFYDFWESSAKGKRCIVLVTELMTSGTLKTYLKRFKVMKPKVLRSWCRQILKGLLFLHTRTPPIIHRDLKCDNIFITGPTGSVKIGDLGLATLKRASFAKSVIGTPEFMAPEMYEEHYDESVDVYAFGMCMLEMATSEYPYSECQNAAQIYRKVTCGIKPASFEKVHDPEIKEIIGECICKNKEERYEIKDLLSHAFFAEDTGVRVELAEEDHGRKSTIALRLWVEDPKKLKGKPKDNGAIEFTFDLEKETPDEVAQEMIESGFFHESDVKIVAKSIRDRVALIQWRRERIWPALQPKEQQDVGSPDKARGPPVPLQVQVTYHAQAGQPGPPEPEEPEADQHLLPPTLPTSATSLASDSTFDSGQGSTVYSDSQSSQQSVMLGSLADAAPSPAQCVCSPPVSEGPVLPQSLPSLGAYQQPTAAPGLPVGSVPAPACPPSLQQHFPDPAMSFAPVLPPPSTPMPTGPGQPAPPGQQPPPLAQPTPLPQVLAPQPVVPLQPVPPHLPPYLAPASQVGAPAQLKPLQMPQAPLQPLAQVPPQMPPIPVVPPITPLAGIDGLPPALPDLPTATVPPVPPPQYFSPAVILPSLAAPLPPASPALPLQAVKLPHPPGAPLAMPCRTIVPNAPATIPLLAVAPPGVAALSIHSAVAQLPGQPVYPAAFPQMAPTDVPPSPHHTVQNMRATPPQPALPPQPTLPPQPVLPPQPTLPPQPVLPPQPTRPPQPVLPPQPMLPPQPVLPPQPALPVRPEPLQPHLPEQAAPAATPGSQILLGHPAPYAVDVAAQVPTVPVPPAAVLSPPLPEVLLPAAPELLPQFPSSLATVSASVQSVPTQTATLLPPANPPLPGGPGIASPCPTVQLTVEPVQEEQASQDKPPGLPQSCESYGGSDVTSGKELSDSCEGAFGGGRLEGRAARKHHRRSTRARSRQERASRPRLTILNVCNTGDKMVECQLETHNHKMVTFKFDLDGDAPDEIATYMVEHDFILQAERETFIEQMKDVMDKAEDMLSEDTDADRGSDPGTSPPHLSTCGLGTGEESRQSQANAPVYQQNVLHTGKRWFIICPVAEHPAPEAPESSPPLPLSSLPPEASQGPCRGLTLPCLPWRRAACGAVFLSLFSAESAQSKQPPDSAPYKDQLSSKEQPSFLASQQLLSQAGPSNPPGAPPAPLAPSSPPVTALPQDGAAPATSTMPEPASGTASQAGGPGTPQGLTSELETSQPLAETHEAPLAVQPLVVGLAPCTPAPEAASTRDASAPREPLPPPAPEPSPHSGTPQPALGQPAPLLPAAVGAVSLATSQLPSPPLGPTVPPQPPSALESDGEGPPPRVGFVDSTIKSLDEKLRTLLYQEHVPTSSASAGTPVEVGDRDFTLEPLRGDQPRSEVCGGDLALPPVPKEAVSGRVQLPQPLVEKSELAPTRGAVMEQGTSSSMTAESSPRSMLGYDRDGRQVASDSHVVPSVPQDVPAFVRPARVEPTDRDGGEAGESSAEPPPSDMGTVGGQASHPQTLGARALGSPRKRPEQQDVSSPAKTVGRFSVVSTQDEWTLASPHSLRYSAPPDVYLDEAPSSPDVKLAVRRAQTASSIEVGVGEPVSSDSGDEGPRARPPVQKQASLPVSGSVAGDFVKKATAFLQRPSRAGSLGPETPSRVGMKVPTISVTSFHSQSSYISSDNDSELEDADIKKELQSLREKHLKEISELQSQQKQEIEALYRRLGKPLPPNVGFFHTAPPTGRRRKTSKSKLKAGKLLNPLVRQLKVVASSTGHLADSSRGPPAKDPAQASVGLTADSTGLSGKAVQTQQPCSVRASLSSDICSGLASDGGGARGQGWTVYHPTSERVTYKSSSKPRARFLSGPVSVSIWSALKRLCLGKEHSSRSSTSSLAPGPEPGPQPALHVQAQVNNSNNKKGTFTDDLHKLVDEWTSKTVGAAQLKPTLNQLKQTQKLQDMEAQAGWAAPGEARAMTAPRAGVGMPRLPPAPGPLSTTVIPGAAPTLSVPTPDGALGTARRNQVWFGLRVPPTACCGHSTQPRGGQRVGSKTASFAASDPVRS

Study 1 — method: Incucyte 3D growth; tested at: 30 µM; direction: higher = more growth
SMILES: CC(C)(C(=O)O)[C@H](NC(=O)Cc1cccc(I)c1)c1ccc2oc(=O)[nH]c2c1
cell line | time | spheroid area
MEL-JUSO | 12.52 h | 8.82e+06 a.u. and 8.55e+06 a.u. and 8.43e+06 a.u. and 7.97e+06 a.u. and 7.17e+06 a.u. and 9.63e+06 a.u.
IPC-298 | 192 h | 2.69e+07 a.u. and 3.04e+07 a.u. and 2.26e+07 a.u. and 3.42e+07 a.u. and 2.87e+07 a.u.
IPC-298 | 168 h | 2.68e+07 a.u. and 2.86e+07 a.u. and 2.23e+07 a.u. and 2.73e+07 a.u. and 3.32e+07 a.u. and 2.98e+07 a.u.
A375 | 426.52 h | 1.62e+08 a.u. and 1.8e+08 a.u. and 1.72e+08 a.u. and 1.81e+08 a.u. and 1.6e+08 a.u. and 1.47e+08 a.u.
A375 | 318.52 h | 1.98e+08 a.u. and 1.75e+08 a.u. and 1.95e+08 a.u. and 1.76e+08 a.u. and 1.7e+08 a.u.
IPC-298 | 132 h | 2.49e+07 a.u. and 2.03e+07 a.u. and 3.09e+07 a.u. and 2.88e+07 a.u. and 2.7e+07 a.u. and 2.55e+07 a.u.
A375 | 492.52 h | 1.78e+08 a.u. and 1.55e+08 a.u. and 1.44e+08 a.u. and 1.4e+08 a.u. and 1.48e+08 a.u. and 1.57e+08 a.u.
NCI-H358 | 204 h | 1.12e+07 a.u. and 8.55e+06 a.u. and 8.26e+06 a.u. and 8.49e+06 a.u. and 6.62e+06 a.u.
KP-4 | 210 h | 3.8e+07 a.u. and 5.61e+07 a.u. and 3.51e+07 a.u. and 3.71e+07 a.u. and 1.88e+07 a.u. and 3.63e+07 a.u.
A375 | 240.52 h | 1.67e+08 a.u. and 1.74e+08 a.u. and 1.84e+08 a.u. and 1.91e+08 a.u. and 1.65e+08 a.u. and 1.62e+08 a.u.
A375 | 78.52 h | 4.59e+07 a.u. and 3.89e+07 a.u. and 4.13e+07 a.u. and 5.74e+07 a.u. and 3.73e+07 a.u. and 4.72e+07 a.u.

Study 2 — read-out: enzyme activity; mode: inhibitor; tested at: 0.5 µM; reference: control
SMILES: O=S(=O)(NCCNC/C=C/c1ccc(Br)cc1)c1cccc2cnccc12
target | remaining activity
TGFBR1 (Homo sapiens, UniProt P36897) | 97%
CHEK2 (Homo sapiens, UniProt O96017) | 82.8%
Protein kinase C beta type, isoform beta-I (PRKCB, Homo sapiens, UniProt P05771) | 88.3%
CAMK2D (Homo sapiens, UniProt Q13557) | 97.1%
PRKACA (Homo sapiens, UniProt P17612) | 10.5%
cGMP-dependent protein kinase 1, isoform beta (PRKG1, Homo sapiens, UniProt Q13976) | 41.1%
DAPK2 (Homo sapiens, UniProt Q9UIK4) | 72.1%
STK39 (Homo sapiens, UniProt Q9UEW8) | 103%
STK10 (Homo sapiens, UniProt O94804) | 89.2%
Tyrosine-protein kinase Lyn, isoform B (LYN, Homo sapiens, UniProt P07948) | 101%

Study 3 — method: phase 2a clinical trial; host: idiopathic pulmonary fibrosis patients
Structure (SMILES): CC(C)n1cnc(-c2ccc(F)cc2)c1-c1ncc(C(=O)Nc2ccc(N3CCN(C)CC3)cc2)[nH]1
refers to | route | dose | notes | reference | patients with TEAEs
reproductive and breast disorders |  | 60 mg once daily | grade 4 maximum intensity |  | 0%
neutrophil count increased |  | 30 mg once daily | grade 1 maximum intensity | patients | 1%
oral herpes | oral | dose not given | grade 1, all drug arms | patients | 1%
infections and infestations |  | 30 mg once daily | grade 2 maximum intensity | patients | 3%
back pain |  | dose not given | grade 1, all drug arms | patients | 1%
reproductive and breast disorders |  | 30 mg once daily | grade 4 maximum intensity |  | 0%
respiratory tract infection |  | 60 mg once daily | grade 2 maximum intensity | patients | 1%
reproductive and breast disorders |  | dose not given | grade 5, all drug arms |  | 0%
reproductive and breast disorders |  | dose not given | grade 3, all drug arms |  | 0%
infections and infestations |  | 30 mg once daily | grade 3 maximum intensity | patients | 1%

Study 4 — Structure (SMILES): c1ccc(N2CCN(Cc3nc4ccccc4[nH]3)CC2)nc1; method: competition with immobilised ligand; tested at: 1 µM
target | read-out | remaining binding [%]
WNK2 (Homo sapiens, UniProt Q9Y3S1) | binding | 100
MAP4K3 (Homo sapiens, UniProt Q8IVH8) | binding | 100
CSK (Homo sapiens, UniProt P41240) | cell-free assay | 100
MARK3 (Homo sapiens, UniProt P27448) | binding | 100
PRKCH (Homo sapiens, UniProt P24723) | cell-free assay | 89
RIPK1 (Homo sapiens, UniProt Q13546) | binding | 100
DAPK2 (Homo sapiens, UniProt Q9UIK4) | binding | 86
ROS1 (Homo sapiens, UniProt P08922) | cell-free assay | 100
PLK3 (Homo sapiens, UniProt Q9H4B4) | binding | 100
PAK3 (Homo sapiens, UniProt O75914) | cell-free assay | 100
EPHA3 (Homo sapiens, UniProt P29320) | cell-free assay | 100
NTRK1 (Homo sapiens, UniProt P04629) | cell-free assay | 100
Tyrosine-protein kinase ABL1, phosphorylated (ABL1, Homo sapiens, UniProt P00519, Q252H) | binding | 100
Tyrosine-protein kinase ABL1, non-phosphorylated (ABL1, Homo sapiens, UniProt P00519, F317L) | binding | 100
PIK3CA (Homo sapiens, UniProt P42336, C420R) | cell-free assay | 100
RET (Homo sapiens, UniProt P07949, V804L) | cell-free assay | 100

Repeated from above (study 2):
target | remaining activity
DAPK2 (Homo sapiens, UniProt Q9UIK4) | 72.1%
Tyrosine-protein kinase Lyn, isoform B (LYN, Homo sapiens, UniProt P07948) | 101%
Protein kinase C beta type, isoform beta-I (PRKCB, Homo sapiens, UniProt P05771) | 88.3%
TGFBR1 (Homo sapiens, UniProt P36897) | 97%
CHEK2 (Homo sapiens, UniProt O96017) | 82.8%
CAMK2D (Homo sapiens, UniProt Q13557) | 97.1%
